Published values pooled from the literature.
Each numbered part is a random draw from the data of one study; scales do not carry over between parts. Values joined by “and” are separate records of one study, mostly repeats; a detail may differ.
Chain of UniProt P47898 (whole entry, looked up): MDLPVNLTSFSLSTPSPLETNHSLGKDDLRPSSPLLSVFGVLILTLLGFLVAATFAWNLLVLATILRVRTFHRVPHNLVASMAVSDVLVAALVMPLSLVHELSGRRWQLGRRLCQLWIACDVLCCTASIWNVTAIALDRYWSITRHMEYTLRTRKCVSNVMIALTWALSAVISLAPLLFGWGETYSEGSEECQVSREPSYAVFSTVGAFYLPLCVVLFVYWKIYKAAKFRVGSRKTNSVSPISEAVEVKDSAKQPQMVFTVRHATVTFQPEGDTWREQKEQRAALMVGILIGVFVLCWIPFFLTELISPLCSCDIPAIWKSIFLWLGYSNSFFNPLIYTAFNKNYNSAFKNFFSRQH

Study 1
Cell line: mouse MPNST tumor cells
Method: high-content immunofluorescence imaging
Measured: nuclear SOX9
Concentration: 10 µM
Time: 12 h
Setting: mean of 2 replicates
Relative to: DMSO control
Reading: higher = more nuclear SOX9
Structure (SMILES)	nuclear SOX9 intensity
CC(=O)[C@H]1CC[C@H]2[C@@H]3CCC4=CC(=O)CC[C@]4(C)[C@H]3CC[C@]12C	99.9 % of DMSO
CC1CC(OC(=O)C(O)c2ccccc2)CC(C)(C)C1 (stereo not shown)	97.5 % of DMSO
Cc1cc(C)c(S(=O)(=O)Nc2ccccc2C(F)(F)F)c(C)c1	109 % of DMSO
O=C(OC(C(F)(F)F)C(F)(F)F)N1CCN(Cc2cccc(Oc3ccccc3)c2)CC1	103 % of DMSO
CNC(C)CCC=C(C)C (stereo not shown)	92.8 % of DMSO

Study 2
Target: Calcium/calmodulin-dependent protein kinase type II subunit alpha (CAMK2A, Homo sapiens, UniProt Q9UQM7)
Chain of UniProt Q9UQM7 (whole entry, looked up): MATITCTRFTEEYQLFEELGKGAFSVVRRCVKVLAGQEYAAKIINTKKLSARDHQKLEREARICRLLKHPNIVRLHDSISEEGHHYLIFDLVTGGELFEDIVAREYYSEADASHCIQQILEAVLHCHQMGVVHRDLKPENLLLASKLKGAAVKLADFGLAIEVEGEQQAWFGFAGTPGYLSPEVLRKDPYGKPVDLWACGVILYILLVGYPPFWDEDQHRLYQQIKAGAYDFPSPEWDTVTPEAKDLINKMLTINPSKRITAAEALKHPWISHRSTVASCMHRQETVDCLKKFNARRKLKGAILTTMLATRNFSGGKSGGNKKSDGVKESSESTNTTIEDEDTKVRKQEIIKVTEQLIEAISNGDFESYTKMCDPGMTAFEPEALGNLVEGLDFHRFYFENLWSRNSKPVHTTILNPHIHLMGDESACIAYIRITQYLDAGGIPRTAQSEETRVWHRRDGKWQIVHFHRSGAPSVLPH
Observed: enzyme activity
Action: inhibitor
Concentration: 10 µM
SMILES	inhibition [%]
O=C(O)/C=C\c1cc2ccoc2cc1O[C@@H]1O[C@H](CO)[C@@H](O)[C@H](O)[C@H]1O	-23
O=C(O)C[C@H](O)C[C@H](O)/C=C/c1c(C2CC2)nc2ccccc2c1-c1ccc(F)cc1	5
C[C@@H]1O[C@@H](O[C@H]2[C@H](O[C@H]3[C@H](O[C@H]4CC[C@]5(C)[C@H]6CC=C7[C@@H]8CC(C)(C)CC[C@]8(C(=O)O)CC[C@@]7(C)[C@]6(C)CC[C@H]5C4(C)C)OC[C@H](O)[C@@H]3O)O[C@H](CO)[C@@H](O)[C@@H]2O)[C@H](O)[C@H](O)[C@H]1O	-8
COc1ccc(-c2oc3c(CC=C(C)C)c(O[C@@H]4O[C@H](CO)[C@@H](O)[C@H](O)[C@H]4O)cc(O)c3c(=O)c2O[C@@H]2O[C@@H](C)[C@H](O)[C@@H](O)[C@H]2O[C@@H]2OC[C@@H](O)[C@H](O)[C@H]2O)cc1	2
O=c1[nH]cnc2c1cnn2[C@@H]1O[C@H](CO)[C@@H](O)[C@H]1O	23
O[C@@H]1[C@@H](O)[C@H](OC/C=C/c2ccccc2)O[C@H](CO[C@@H]2OC[C@H](O)[C@H](O)[C@H]2O)[C@H]1O	9

Study 3
Compound: CC1=C(/C=C/C(C)=C/C=C/C(C)=C/C(=O)O)C(C)(C)CCC1
Cell line: HuT78
Concentration: concentration not given
Setting: unit not given
Relative to: vehicle
method	measured	mRNA level
–	IL2RG	1.4 and 1.67 and 1.64
qPCR	LTA	1.38 and 1.68 and 1.44
–	CCR4	0.724 and 0.854 and 0.533
–	IFNG	6.66 and 6.53 and 6.65

Mixed results
SMILES	target	observed	concentration	quantity	result
O=c1nc(-c2ccccn2)sc2ccccc12	5-hydroxytryptamine receptor 5A (HTR5A, Homo sapiens, UniProt P47898)	ligand displacement	10 µM	inhibition	-10.2%

For quick reference, copied from above (study 2):
SMILES	inhibition [%]
COc1ccc(-c2oc3c(CC=C(C)C)c(O[C@@H]4O[C@H](CO)[C@@H](O)[C@H](O)[C@H]4O)cc(O)c3c(=O)c2O[C@@H]2O[C@@H](C)[C@H](O)[C@@H](O)[C@H]2O[C@@H]2OC[C@@H](O)[C@H](O)[C@H]2O)cc1	2
O=C(O)/C=C\c1cc2ccoc2cc1O[C@@H]1O[C@H](CO)[C@@H](O)[C@H](O)[C@H]1O	-23
